Published values collected from several papers.
A part holds a random share of what one study measured. Changes are numbered by the printed parent chain.

Set 1
Target: ABI1, truncated, D143A, DHFR fusion (Arabidopsis thaliana)
Method: DHFR PCA, deep sequencing
Medium: yeast
Setting: methotrexate growth selection, single substitutions
Together with: (+)-ABA 17 µM
Baseline: wild-type fitted maximum
Direction: higher = stronger binding
Measurement: relative binding score
Starting sequence: PYL1, truncated, DHFR fusion (Arabidopsis thaliana); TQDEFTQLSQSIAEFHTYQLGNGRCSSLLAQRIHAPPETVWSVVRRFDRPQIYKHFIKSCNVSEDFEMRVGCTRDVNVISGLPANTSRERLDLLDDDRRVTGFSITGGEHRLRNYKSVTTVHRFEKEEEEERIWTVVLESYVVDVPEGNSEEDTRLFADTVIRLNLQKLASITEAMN; partner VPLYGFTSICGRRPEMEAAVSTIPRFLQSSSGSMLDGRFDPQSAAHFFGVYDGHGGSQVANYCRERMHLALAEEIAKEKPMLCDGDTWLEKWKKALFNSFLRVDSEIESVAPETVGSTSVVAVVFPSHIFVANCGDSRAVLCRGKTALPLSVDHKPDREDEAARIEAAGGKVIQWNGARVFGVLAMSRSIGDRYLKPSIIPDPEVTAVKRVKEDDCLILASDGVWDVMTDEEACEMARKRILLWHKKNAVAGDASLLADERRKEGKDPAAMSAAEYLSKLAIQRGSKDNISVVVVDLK
T160H: 66.9%
R46K: 68.3%
G71L: -4.11%
D3E: 85.7%
G71C: 19%
F15M: 49.3%
S11N: 64.8%

Set 2
Target: Prothrombin, mature alpha-thrombin (F2, Homo sapiens, UniProt P00734)
Method: aptamer microarray, sandwich
Form: DNA with 2'F-ANA
Medium: in vitro
Tested at: 200 nM
Setting: whole 15-mer aptamer, many near background
Together with: Cy3 exosite-II aptamer, 400 nM
Direction: higher = stronger binding
Measurement: mean fluorescence intensity
Strand: GGTTGGTGTGGTTGG
2'F-ANA at 1 2 5 10 11: 45.8 a.u.
2'F-ANA at 2 3 4 6 7 9 10: 215 a.u.
2'F-ANA at 1 7 9: 228 a.u.
2'F-ANA at 3 6 8 9 10 12 14: 348 a.u.
2'F-ANA at 1 4 5 6 7 10 11 13 14 15: 50.5 a.u.
2'F-ANA at 2 4 7 8 9 12 13: 404 a.u.
2'F-ANA at 2 3 7 8 9 14: 511 a.u.
2'F-ANA at 1 3 4 5 6 10 11 13 14 15: 50.7 a.u.
2'F-ANA at 2 3 4 6 7 9 11 12 14 15: 220 a.u.
2'F-ANA at 1 8 11 12 13 14 15: 75.3 a.u.

Set 3
Target: CCNE2, cyclin fold, Cln2 fusion (human)
Method: yeast growth competition, sequencing
Medium: yeast
Setting: strong parent motif
Baseline: not given
Direction: higher = stronger binding
Measurement: normalised enrichment score
Starting sequence: E2F1 docking peptide (human); PPVKRRLDLETDH
V3S: 0.565
D12Q: 2.47
H13W: 1.55
P2I: 0.5
E10A: 2.18
R6I: 0.833
V3P: 1.1

Single results of other studies
PhoQ, residues 284 288 289 292 302 303 GASLAW  fold induction (PhoP, residues 12 14 15 18 19 NMSFL (Escherichia coli, UniProt P23836); Sort-seq, refers to: YFP reporter; E. coli; PhoQ-PhoP variant library, together with: 10 µM Mg2+; baseline: high Mg2+ state, higher = stronger signaling): 12.8

Some of these lines once more (set 3):
V3S: 0.565
D12Q: 2.47
